Published values from different studies.
Protocols differ between the studies behind these lines. Several values in a cell are separate wells, animals, samples, runs or records. ± gives the spread as reported.
SIRT3: NAD-dependent protein deacetylase sirtuin-3, mitochondrial (SIRT3, Homo sapiens, UniProt Q9NTG7)
UniProt Q9NTG7, sequence (whole entry, looked up): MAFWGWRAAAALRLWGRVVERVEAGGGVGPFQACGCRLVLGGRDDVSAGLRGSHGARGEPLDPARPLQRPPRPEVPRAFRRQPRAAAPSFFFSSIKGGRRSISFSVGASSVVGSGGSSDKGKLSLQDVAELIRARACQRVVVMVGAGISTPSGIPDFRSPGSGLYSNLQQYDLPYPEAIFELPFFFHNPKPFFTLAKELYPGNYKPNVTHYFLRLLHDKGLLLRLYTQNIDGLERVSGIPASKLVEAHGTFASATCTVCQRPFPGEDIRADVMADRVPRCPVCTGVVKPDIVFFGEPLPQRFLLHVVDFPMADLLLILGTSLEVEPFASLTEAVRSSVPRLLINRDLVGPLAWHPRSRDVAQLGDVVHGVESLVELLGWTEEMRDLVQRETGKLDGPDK
CSNK1D: Casein kinase I isoform delta (CSNK1D, Homo sapiens, UniProt P48730)
Protein AF-9 with DOT1L: Protein AF-9, with DOT1L (Homo sapiens, UniProt P42568)
UniProt P42568, sequence (whole entry, looked up): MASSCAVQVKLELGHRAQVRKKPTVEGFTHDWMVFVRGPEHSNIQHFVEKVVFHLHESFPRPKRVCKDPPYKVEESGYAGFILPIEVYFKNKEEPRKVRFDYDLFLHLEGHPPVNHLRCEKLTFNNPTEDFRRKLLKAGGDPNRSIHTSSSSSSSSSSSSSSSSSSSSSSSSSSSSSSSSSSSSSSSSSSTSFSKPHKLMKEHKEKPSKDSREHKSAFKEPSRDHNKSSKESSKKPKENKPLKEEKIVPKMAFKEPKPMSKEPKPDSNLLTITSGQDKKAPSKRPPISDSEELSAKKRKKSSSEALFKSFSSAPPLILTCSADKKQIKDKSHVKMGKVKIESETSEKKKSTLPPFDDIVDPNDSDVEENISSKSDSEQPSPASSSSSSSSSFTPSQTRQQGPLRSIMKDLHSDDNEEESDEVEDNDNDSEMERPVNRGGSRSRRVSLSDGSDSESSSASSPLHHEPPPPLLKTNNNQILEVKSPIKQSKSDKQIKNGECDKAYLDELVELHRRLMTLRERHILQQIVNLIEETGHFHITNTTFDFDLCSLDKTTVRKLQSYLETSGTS
Cacna1c: Voltage-dependent L-type calcium channel subunit alpha-1C (Cacna1c, Mus musculus, UniProt Q01815)
UniProt Q01815, sequence (whole entry, looked up): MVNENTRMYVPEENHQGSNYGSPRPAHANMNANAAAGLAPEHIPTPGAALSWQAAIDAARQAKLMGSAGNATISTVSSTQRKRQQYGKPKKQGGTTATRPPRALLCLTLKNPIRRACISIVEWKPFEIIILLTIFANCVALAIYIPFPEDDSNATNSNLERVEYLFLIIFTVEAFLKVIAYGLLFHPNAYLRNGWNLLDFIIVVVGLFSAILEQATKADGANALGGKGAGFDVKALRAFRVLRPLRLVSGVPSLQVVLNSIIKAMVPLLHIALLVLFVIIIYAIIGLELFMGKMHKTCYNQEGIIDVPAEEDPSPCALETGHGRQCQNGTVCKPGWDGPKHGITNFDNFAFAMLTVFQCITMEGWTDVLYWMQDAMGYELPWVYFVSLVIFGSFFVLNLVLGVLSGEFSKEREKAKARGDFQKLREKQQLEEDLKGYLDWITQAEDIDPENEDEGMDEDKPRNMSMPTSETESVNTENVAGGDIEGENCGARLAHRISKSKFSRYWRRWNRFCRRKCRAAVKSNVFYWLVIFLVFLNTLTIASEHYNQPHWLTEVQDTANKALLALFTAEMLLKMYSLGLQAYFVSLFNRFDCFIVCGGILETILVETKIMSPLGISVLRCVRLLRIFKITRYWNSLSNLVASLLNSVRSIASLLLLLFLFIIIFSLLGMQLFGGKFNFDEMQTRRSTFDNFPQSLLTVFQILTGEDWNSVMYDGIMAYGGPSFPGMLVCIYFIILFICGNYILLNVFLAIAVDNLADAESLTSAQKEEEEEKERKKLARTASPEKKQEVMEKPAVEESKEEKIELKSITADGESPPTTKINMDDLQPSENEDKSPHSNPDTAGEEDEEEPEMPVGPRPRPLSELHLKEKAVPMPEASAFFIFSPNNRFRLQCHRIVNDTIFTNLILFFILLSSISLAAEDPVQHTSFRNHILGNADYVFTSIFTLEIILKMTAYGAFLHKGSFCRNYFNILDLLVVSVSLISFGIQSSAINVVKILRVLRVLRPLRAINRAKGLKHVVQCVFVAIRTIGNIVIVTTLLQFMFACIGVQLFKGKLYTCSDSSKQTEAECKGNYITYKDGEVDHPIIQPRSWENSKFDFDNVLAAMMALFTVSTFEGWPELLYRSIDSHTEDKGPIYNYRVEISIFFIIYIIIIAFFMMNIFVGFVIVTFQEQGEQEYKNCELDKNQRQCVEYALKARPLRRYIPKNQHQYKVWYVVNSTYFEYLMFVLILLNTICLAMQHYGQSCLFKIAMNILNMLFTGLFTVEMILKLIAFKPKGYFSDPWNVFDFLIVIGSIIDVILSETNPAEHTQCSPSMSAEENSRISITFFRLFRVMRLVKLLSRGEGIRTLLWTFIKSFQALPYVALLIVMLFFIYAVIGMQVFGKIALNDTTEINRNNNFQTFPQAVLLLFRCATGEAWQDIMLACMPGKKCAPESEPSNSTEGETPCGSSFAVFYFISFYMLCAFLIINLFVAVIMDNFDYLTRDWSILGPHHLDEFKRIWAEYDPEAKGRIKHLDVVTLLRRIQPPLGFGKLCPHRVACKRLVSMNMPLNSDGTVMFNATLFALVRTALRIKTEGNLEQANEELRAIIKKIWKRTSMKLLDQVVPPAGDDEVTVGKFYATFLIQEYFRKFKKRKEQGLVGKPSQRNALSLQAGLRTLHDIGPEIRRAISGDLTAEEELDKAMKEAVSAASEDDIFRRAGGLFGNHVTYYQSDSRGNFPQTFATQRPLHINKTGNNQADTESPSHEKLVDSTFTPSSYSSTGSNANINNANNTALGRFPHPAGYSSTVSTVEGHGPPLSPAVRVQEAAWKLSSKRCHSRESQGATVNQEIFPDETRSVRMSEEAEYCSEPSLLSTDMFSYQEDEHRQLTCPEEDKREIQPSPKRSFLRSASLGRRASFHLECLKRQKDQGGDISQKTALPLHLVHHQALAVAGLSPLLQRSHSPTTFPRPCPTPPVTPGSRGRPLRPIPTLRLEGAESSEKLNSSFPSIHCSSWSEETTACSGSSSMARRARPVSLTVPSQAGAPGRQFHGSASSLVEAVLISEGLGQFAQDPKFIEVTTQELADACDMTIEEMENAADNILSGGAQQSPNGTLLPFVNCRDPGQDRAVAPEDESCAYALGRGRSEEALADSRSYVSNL
BRD9: Bromodomain-containing protein 9 (BRD9, Homo sapiens, UniProt Q9H8M2)
UniProt Q9H8M2, sequence (whole entry, looked up): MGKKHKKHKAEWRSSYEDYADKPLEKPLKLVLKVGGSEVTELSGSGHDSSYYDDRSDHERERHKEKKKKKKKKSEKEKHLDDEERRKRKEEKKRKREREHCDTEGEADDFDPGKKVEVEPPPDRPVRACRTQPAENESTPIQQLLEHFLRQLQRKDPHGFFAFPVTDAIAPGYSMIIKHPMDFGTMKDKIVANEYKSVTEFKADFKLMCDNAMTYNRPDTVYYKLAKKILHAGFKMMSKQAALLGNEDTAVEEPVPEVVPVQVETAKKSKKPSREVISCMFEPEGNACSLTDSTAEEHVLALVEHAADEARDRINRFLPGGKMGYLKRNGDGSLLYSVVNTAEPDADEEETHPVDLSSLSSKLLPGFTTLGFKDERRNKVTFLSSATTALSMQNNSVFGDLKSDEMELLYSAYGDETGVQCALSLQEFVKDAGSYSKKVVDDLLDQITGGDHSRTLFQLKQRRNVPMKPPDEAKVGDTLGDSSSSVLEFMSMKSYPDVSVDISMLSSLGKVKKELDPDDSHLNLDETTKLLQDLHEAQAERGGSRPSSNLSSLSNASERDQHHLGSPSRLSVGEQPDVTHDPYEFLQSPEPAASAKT
PHKG2: Phosphorylase b kinase gamma catalytic chain, liver/testis isoform (PHKG2, Homo sapiens, UniProt P15735)
CD274: Programmed cell death 1 ligand 1 (CD274, Homo sapiens, UniProt Q9NZQ7)
UniProt Q9NZQ7, sequence (whole entry, looked up): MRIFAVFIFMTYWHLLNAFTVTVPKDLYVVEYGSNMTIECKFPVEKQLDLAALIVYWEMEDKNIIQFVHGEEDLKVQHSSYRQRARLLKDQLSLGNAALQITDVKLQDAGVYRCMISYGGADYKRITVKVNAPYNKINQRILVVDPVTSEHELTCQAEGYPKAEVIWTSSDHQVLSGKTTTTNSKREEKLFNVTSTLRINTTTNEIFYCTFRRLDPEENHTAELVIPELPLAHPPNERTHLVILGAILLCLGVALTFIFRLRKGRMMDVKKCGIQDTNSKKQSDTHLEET
UniProt Q8IWT6, sequence (whole entry, unmodified, looked up): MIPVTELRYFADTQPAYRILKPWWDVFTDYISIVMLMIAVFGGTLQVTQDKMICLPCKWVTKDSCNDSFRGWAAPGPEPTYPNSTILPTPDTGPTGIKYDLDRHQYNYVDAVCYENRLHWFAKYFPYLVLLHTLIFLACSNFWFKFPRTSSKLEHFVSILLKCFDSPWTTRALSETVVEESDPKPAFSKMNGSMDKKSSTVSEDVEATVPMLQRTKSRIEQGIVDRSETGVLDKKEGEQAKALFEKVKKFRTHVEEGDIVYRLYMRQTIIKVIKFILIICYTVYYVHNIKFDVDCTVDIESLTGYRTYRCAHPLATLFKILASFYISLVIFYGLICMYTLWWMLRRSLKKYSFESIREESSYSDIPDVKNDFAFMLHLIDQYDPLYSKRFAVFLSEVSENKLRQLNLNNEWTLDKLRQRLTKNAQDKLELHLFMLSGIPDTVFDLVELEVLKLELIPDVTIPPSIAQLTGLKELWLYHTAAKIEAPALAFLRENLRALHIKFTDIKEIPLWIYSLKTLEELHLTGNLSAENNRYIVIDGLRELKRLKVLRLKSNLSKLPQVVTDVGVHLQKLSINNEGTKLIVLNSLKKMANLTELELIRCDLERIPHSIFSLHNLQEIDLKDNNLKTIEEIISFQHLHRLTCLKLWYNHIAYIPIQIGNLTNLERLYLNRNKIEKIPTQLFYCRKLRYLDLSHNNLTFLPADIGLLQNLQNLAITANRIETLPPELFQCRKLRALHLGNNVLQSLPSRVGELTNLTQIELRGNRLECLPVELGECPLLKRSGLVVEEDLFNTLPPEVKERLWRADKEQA
UniProt Q04760, sequence (whole entry, looked up): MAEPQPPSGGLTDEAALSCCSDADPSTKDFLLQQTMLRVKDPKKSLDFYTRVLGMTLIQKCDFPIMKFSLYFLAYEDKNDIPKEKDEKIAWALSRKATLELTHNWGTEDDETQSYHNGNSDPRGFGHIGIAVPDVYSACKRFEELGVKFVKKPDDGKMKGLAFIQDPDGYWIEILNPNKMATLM

Nc1ncn([C@H]2C[C@H](O)[C@@H](CO)O2)c(=O)n1  viability (HBL-1; 0.5 µM, 120 h): 37.5%
O=C(CCN1C(=O)c2ccccc2C1=O)OCc1nc2cc(C(F)(F)F)ccc2c(=O)[nH]1  inhibition (uncharacterized protein (Erigeron canadensis, UniProt A0A8M0FGR5); enzyme activity; 100 mg/L): > 30%
C=C(C)[C@@H](CC=C(C)C)C[C@@]12C[C@@H](CC=C(C)C)C(C)(C)[C@@](CC=C(C)C)(C(=O)C(C(=O)c3ccc(O)c(O)c3)=C1O)C2=O  inhibition (SIRT3; 50 µM): 10%
[2H]c1cc(C)c(NC(=O)c2cnc(Nc3cc(N4CCCCC4)nc(C)n3)s2)c(Cl)c1  inhibition (Proto-oncogene tyrosine-protein kinase receptor Ret (RET, Homo sapiens, UniProt P07949, S891A); 0.01 µM): < 30%
Cc1cc(CCOCCCCCc2ccccc2)cc2nc[nH]c12  inhibition (ATP2A2 (Sus scrofa, UniProt P11607); ATPase activity; pig microsomes; 50 µM): ~29%
COc1cccc(F)c1Cn1cnc(-c2ccc(F)cc2)c1-c1ccncc1  inhibition (CSNK1D; inhibitor; 1 µM): 72%
O=C(Nc1cccc2c(=O)cc(-c3nnn[nH]3)oc12)c1ccc(OCCCCc2ccccc2)cc1  inhibition (Volume-regulated anion channel subunit LRRC8C, part LRRC8A IL1 chimera (LRRC8C, Homo sapiens, UniProt Q8TDW0, L136K); ion current, inhibitor, whole-cell patch clamp; HCT LRRC8-/- cells; 10 µM, -100 mV): 86.7% and 89.1% and 81.1% and 86.3%
Cn1cc(-c2cnc3ccc(NC(=O)Nc4ccc(F)c(Br)c4)cc3n2)cn1  inhibition (Mitogen-activated protein kinase kinase kinase 1 (MAP3K1, Homo sapiens, UniProt Q13233); kinase binding, KiNativ profiling, refers to: Lys2 peptide; PANC-1 lysate; 7.5 µM): 58.5%
CCc1ccc(Nc2ccc3ncc(OCC4CCNCC4)nc3c2)cc1  inhibition (Protein AF-9 with DOT1L; DOT1L binding, AlphaLISA; 10 µM): 52%
CC(C)c1noc2ncc(C(=O)c3ccccc3O)cc12  inhibition (Cacna1c; ion current, whole-cell patch-clamp; 10 µM): 15.6%
Cc1ccc(-c2ccc3ncc(OCC4CCNCC4)nc3c2)cc1  inhibition (Protein AF-9 with DOT1L; DOT1L binding, AlphaLISA; 10 µM): 9 to 18%
COc1cc(-c2cc(C(C)=O)n3ccccc23)c(OC)cc1CN(C)C  inhibition (BRD9; AlphaScreen; 1 µM): 95.2%
Cc1ccc(C(=O)Nc2ccc3ccccc3c2)o1  inhibition (Cacna1c; ion current, inhibitor, whole-cell patch clamp; 10 µM): 6.9% and 4.3% and 4.7% and 17.1% and 3.9%
COc1ccc(OC)c(-c2cc(C(C)=O)n3ccccc23)n1  inhibition (BRD9; AlphaScreen; 1 µM): 79.2%
Fc1ccc(Nc2ccc3ncc(OCC4CCNCC4)nc3c2)cc1  inhibition (Protein AF-9 with DOT1L; DOT1L binding, AlphaLISA; 10 µM): 19 to 40%
COc1cc(C(=O)NS(=O)(=O)c2ccccc2C)ccc1Cc1cn(C)c2ccc(NC(=O)OC3CCCC3)cc12  inhibition (LRRC8A/LRRC8C (Homo sapiens, UniProt Q8IWT6+Q8TDW0, Y124F/Y126F); ion current, whole-cell patch clamp; HCT LRRC8-/- cells; 30 µM, +100 mV, Y124F/Y126F heteromers): 35.4% and 91.6% and 85.8% and 55.5% and 89.4%
Cc1ccc(-c2ccc3ncc(OCC4CCNCC4)nc3c2)cc1C  inhibition (Protein AF-9 with DOT1L; DOT1L binding, AlphaLISA; 10 µM): 9 to 18%
O=C(O)CCNc1cc(N2CCc3ccccc3CC2)nc(-c2cccnc2)n1  viability (HBL-1; 0.1 µM, 120 h): 120%
c1cc(C2CCCCC2)ccc1Oc1ccc2ncc(OCC3CCNCC3)nc2c1  inhibition (Protein AF-9 with DOT1L; DOT1L binding, AlphaLISA; 10 µM): 2 to 16%
O=C(C[C@@H](C(F)F)n1ccc(F)n1)N1CCC(O)(Cn2cnc3c(cnn3-c3ccc(F)cc3)c2=O)CC1  inhibition (Ubiquitin carboxyl-terminal hydrolase 7 (USP7, Homo sapiens, UniProt Q93009); enzyme activity, inhibitor; 0.5 µM): 95.2% and 101%
CC[C@@H]1[C@H](F)C(=O)N[C@@H]1COc1nccc2cc(C(N)=O)c(OC)cc12  inhibition (PHKG2; ATP-site probe binding, ActivX profiling; THP-1 cell lysate; 0.2 mM, Lys1 site): 0.151%
COc1cc(-c2cc(C(C)=O)n3ccccc23)c(OC)cc1CO  inhibition (BRD9; AlphaScreen; 1 µM): 95%
COc1ccc(C(=O)/C=C/c2cccc(-c3cccc(-c4ccc(CNC[C@@H]5CCC(=O)N5)c(OC)n4)c3C)c2)cc1  inhibition (CD274; binding, inhibitor, HTRF; 1 µM): 10.8 ± 1.2%
O=C(N[C@@H](CSCc1nc2cc([N+](=O)[O-])ccc2[nH]1)C(=O)NO)c1ccccc1  inhibition (Lactoylglutathione lyase (GLO1, Homo sapiens, UniProt Q04760); enzyme activity, inhibitor; concentration not given): inactive
Cc1ccc(Nc2ccc3ncc(OCC4CCNCC4)nc3c2)cc1  inhibition (Protein AF-9 with DOT1L; DOT1L binding, AlphaLISA; 10 µM): 43%
NC/C(=C\F)COc1cccc(Cn2c(=S)[nH]c(=O)c3[nH]cnc32)c1  inhibition (rat rolipram binding site; radioligand binding; 10 µM): < 50%
COc1cc(-c2cc(C(C)=O)n3ccccc23)c(OC)cc1Cn1ccnc1  inhibition (PHIP, BD2 (Homo sapiens, UniProt Q8WWQ0); 1 µM): -11.4%
Cc1c(COc2ccc(CN3CCCCC3C(=O)NCCCCCCC(=O)N(C)CCCC34CCC(c5ccccc53)c3ccccc34)cc2Br)cccc1-c1ccccc1 (stereo not shown)  inhibition (CD274; binding, inhibitor, HTRF; 1 µM): 27.1 ± 2.4%
CN1CC(Oc2cnc(C#N)cc2-c2ccn3nc(NC(=O)C4CC4)cc3c2)C1  inhibition (PHKG2; inhibitor, KinaseProfiler panel; 1 µM): 0%
COc1cc(C(C)(C)O)c(OC)cc1-c1cc(C(C)=O)n2ccccc12  inhibition (BRD9; AlphaScreen; 1 µM): 94.6%
CN(C(=O)n1cnc(-c2ccc[n+]([O-])c2)c1)C1CCCCC1  inhibition (Neuromedin-K receptor (TACR3, Homo sapiens, UniProt P29371); 10 µM): -13.8%
COc1cc(-c2cc(C(C)=O)n3ccccc23)c(OC)cc1C(=O)N(C)C  inhibition (BRD9; AlphaScreen; 1 µM): 95.5%
CCCCCCCCCCCCNC(=O)NCCCC[C@H](NS(C)(=O)=O)C(=O)N[C@H](C)C(=O)N[C@@H](CCCNC(=N)N)C(N)=O  inhibition (SIRT3; enzyme activity, inhibitor; 10 µM): < 5%
Cc1cccc(-c2nc[nH]c2-c2ccncc2)c1  inhibition (CSNK1D; kinase activity; 1 µM): 4%
CC(=O)c1cc(-c2cccc(C(F)(F)F)c2)c2ccccn12  inhibition (BRD9; AlphaScreen; 1 µM): 60.2%
COc1nc(-c2cccc(-c3ccccc3)c2C)ccc1CNCCCCCCCCCCC(=O)N(C)CCCC12CCC(c3ccccc31)c1ccccc12  inhibition (CD274; binding, inhibitor, HTRF; 1 µM): 36.2 ± 1.3%
CN1CCN(c2cc(-c3ccncc3)c(-c3ccc4ccccc4c3)nn2)CC1  inhibition (Vasoactive intestinal polypeptide receptor 1 (VIPR1, Homo sapiens, UniProt P32241); antagonist, FLIPR; 10 µM): 4%
CCN1CCN(Cc2ccc(NC(=O)c3ccc(C)c(Oc4ccnc5[nH]ccc45)c3)cc2C(F)(F)F)CC1  inhibition (Serine/threonine-protein kinase mTOR (MTOR, Homo sapiens, UniProt P42345); Huh-7; 10 µM): < 35%
Cc1c(COc2ccc(CN3CCCCC3C(=O)NCCCCCNC(=O)CN(C)CCCC34CCC(c5ccccc53)c3ccccc34)cc2Br)cccc1-c1ccccc1 (stereo not shown)  inhibition (CD274; binding, inhibitor, HTRF; 1 µM): 13.1 ± 2.5%
COc1cc2nccc(Oc3ccc(NC(=O)c4cc5c(n(-c6ccccc6)c4=O)CCCC5=O)nc3)c2cc1OC  inhibition (Tyrosine-protein kinase receptor UFO (AXL, Homo sapiens, UniProt P30530); inhibitor; human patients; 6 mg once daily, day 29, combination with venetoclax): 93 to 99%
FC(F)(F)c1ccc(Nc2ccc3ncc(OCC4CCNCC4)nc3c2)cc1  inhibition (Protein AF-9 with DOT1L; DOT1L binding, AlphaLISA; 10 µM): 19 to 40%
CCCCCCCCNC(=S)NCCCC[C@H](NS(C)(=O)=O)C(=O)N[C@H](C)C(=O)N[C@@H](CCCNC(=N)N)C(N)=O  inhibition (SIRT3; enzyme activity, inhibitor; 10 µM): < 5%
O=C(Nc1ccc(S(=O)(=O)N2CCC(Cl)CC2)cc1)c1ccc([N+](=O)[O-])o1  inhibition (rat rolipram binding site; radioligand binding; 10 µM): 12%

Some of these lines once more:
Cc1ccc(-c2ccc3ncc(OCC4CCNCC4)nc3c2)cc1  inhibition (Protein AF-9 with DOT1L; DOT1L binding, AlphaLISA; 10 µM): 9 to 18%
Fc1ccc(Nc2ccc3ncc(OCC4CCNCC4)nc3c2)cc1  inhibition (Protein AF-9 with DOT1L; DOT1L binding, AlphaLISA; 10 µM): 19 to 40%
